Measured values from different studies.
A part holds a random share of what one study measured. Values joined by “and” are separate records of one study, mostly repeats; a detail may differ.
Chain of UniProt Q8IW41 (whole entry, looked up): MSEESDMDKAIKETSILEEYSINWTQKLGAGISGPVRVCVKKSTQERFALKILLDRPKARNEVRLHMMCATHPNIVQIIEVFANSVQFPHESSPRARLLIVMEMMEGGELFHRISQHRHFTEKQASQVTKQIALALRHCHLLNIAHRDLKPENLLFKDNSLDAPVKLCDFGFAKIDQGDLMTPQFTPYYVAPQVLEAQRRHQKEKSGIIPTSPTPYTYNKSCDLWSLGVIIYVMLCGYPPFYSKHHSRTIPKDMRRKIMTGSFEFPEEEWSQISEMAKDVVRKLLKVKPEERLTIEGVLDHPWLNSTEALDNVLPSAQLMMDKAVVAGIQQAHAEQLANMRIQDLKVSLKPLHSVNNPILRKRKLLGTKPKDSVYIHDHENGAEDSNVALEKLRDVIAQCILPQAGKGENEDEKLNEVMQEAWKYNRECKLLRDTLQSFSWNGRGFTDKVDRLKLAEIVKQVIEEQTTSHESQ
Chain of UniProt P23443 (whole entry, looked up): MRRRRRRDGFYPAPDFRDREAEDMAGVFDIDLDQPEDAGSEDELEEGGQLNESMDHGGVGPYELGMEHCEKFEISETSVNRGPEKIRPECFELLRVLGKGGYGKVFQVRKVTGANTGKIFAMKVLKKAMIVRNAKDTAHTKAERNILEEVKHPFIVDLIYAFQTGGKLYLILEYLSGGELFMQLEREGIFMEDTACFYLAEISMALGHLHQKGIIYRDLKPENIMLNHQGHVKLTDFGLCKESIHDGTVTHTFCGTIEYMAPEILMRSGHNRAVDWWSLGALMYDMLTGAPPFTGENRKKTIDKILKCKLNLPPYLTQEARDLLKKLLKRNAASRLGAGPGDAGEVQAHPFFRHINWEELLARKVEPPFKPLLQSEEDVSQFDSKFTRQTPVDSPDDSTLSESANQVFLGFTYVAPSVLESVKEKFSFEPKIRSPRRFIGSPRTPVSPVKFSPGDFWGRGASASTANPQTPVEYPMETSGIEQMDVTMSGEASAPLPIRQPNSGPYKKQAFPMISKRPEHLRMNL
Chain of UniProt P49840 (whole entry, looked up): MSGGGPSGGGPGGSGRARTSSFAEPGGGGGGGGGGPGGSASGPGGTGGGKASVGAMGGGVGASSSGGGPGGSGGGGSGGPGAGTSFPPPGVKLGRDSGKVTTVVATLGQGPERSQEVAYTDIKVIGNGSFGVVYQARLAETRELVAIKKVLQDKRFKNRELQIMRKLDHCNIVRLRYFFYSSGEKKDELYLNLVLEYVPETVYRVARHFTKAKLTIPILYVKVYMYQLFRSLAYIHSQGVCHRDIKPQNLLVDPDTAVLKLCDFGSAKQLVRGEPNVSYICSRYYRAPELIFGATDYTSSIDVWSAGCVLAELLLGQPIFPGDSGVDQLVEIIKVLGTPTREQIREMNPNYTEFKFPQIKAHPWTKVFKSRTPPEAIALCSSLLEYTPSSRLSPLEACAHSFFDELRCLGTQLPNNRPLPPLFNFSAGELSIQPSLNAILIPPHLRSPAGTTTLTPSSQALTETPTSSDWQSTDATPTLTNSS

Sample 1
Target: DNA polymerase theta, helicase domain (POLQ, Homo sapiens, UniProt O75417)
Chain of UniProt O75417 (whole entry, looked up): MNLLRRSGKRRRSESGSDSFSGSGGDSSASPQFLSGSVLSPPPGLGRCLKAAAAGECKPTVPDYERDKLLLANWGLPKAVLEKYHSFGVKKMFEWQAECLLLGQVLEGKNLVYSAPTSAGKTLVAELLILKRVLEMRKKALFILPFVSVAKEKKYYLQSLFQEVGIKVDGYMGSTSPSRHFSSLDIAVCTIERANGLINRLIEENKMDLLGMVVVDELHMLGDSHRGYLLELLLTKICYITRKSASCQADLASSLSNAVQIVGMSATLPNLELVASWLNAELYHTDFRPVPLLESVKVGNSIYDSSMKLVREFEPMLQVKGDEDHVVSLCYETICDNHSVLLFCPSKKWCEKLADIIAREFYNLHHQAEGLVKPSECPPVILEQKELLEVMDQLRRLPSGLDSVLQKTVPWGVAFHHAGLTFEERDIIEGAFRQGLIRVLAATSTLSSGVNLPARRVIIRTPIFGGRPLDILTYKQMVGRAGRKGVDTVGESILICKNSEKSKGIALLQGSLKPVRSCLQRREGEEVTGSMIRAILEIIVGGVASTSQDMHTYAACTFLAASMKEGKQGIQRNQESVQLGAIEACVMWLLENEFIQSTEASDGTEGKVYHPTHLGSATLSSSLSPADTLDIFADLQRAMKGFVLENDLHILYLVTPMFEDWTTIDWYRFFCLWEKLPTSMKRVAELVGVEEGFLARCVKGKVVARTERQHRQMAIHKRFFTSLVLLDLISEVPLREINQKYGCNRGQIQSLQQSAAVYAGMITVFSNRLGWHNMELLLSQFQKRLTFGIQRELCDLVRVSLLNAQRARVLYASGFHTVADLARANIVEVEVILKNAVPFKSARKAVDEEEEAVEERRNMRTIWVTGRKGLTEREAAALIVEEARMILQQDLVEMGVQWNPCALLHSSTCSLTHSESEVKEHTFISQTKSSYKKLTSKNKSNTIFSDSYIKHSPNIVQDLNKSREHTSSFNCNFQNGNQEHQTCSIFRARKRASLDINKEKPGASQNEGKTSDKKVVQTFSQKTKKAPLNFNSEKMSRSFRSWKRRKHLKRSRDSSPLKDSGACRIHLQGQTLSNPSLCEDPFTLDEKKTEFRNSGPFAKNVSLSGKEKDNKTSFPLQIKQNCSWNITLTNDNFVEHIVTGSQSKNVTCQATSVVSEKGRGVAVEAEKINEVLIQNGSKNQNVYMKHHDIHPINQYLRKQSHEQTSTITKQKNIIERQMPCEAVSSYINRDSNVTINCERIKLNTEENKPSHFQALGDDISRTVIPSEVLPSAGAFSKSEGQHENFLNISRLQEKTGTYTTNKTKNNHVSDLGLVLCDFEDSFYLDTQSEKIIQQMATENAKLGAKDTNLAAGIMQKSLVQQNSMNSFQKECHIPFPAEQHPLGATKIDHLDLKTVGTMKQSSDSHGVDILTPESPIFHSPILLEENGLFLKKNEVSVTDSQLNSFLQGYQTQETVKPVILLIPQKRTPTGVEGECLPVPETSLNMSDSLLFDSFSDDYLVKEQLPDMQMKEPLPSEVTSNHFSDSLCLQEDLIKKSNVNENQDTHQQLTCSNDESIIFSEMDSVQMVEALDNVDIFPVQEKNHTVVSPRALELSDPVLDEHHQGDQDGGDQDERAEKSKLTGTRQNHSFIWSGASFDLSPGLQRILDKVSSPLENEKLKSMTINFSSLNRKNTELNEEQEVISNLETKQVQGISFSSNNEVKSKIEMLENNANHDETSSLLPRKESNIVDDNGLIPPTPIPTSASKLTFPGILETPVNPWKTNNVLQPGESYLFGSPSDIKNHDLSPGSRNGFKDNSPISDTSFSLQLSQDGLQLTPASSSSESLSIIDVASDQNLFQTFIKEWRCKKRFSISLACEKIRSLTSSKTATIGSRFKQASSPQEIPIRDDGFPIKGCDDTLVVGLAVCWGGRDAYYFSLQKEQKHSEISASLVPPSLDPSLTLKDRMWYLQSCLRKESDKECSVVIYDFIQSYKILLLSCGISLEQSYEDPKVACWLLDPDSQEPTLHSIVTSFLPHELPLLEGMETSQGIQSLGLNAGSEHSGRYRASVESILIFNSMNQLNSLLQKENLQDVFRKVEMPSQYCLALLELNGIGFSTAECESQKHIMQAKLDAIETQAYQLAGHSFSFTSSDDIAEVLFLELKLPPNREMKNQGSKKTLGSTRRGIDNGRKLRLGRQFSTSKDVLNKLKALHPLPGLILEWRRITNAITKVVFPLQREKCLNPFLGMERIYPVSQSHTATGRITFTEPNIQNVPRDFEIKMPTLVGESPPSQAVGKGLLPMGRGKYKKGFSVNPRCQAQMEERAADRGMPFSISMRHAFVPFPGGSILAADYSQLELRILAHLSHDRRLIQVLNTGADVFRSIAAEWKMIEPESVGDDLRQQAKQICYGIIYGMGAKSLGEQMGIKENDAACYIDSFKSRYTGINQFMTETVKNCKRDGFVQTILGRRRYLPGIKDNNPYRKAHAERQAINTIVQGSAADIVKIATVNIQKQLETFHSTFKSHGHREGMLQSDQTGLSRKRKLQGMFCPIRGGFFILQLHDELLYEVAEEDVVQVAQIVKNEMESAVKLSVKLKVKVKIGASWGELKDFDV
Mode: inhibitor
Tested at: concentration not given
With: with ssDNA
SMILES | remaining activity
CCC(C)(Oc1ccc(C2(c3ccc(OC(C)(CC)C(=O)O)cc3)CCCCC2)cc1)C(=O)O (stereo not drawn) | 68.7% and 63.7%
COc1cccc2c1C(=O)c1c(O)c3c(c(O)c1C2=O)C[C@@](O)(C(=O)CO)C[C@@H]3O[C@H]1C[C@H](N)[C@H](O)[C@H](C)O1 | 47.9% and 48.3%
Cc1ccc(NC(=O)CSc2ncc(S(=O)(=O)c3ccc(C(C)C)cc3)c(=O)[nH]2)cc1C | 74.9% and 79.7%
CSc1ccc(/C=C/c2nc3ccccc3n2S(=O)(=O)c2ccc(Br)cc2)cc1 | 52.1% and 54.6%
O=C(O)/C(=C/c1c(C(=O)O)[nH]c2cc(Cl)cc(Cl)c12)c1ccccc1 | 108% and 106%
CC(=O)Oc1cccc2c1C(=O)c1c(OC(C)=O)cc(C(=O)O)cc1C2=O | 55.6% and 59.1%
O=C(O)c1cccnc1Nc1cccc(C(F)(F)F)c1 | 60.8% and 64.4%
O=C(Nc1cc2cc[nH]c2cn1)c1ccccc1 | 55% and 55.6%
COc1cccc(C2C3=C(NN/C3=C3/C=CC=CC3=O)C(=O)N2CCc2ccc(OC)c(OC)c2)c1 (stereo not drawn) | 58.1% and 59.6%
N#CSc1cc(SC#N)c(N)nc1N | 26.1% and 25.1%

Sample 2
SMILES: O=C(Nc1cccnn1)N1CCC(=Cc2cccc(Oc3ccc(C(F)(F)F)cn3)c2)CC1
Observed: cell-free assay
Method: competition with immobilised ligand
Tested at: 1 µM
target | remaining binding
Tyrosine-protein kinase ABL2 (ABL2, Homo sapiens, UniProt P42684) | 99%
Ribosomal protein S6 kinase alpha-3, C-terminal kinase domain (RPS6KA3, Homo sapiens, UniProt P51812) | 100%
Rho-associated protein kinase 2 (ROCK2, Homo sapiens, UniProt O75116) | 100%
MAP kinase-interacting serine/threonine-protein kinase 1 (MKNK1, Homo sapiens, UniProt Q9BUB5) | 100%
Phosphatidylinositol 5-phosphate 4-kinase type-2 beta (PIP4K2B, Homo sapiens, UniProt P78356) | 83%
Leukocyte tyrosine kinase receptor (LTK, Homo sapiens, UniProt P29376) | 74%
Calcium/calmodulin-dependent protein kinase type 1 (CAMK1, Homo sapiens, UniProt Q14012) | 100%
Interleukin-1 receptor-associated kinase 3 (IRAK3, Homo sapiens, UniProt Q9Y616) | 86%
Cyclin-dependent kinase 14 (CDK14, Homo sapiens, UniProt O94921) | 89%
Tyrosine-protein kinase Lyn (LYN, Homo sapiens, UniProt P07948) | 100%
MAP kinase-activated protein kinase 5 (MAPKAPK5, Homo sapiens, UniProt Q8IW41) | 100%
Calcium/calmodulin-dependent protein kinase type II subunit delta (CAMK2D, Homo sapiens, UniProt Q13557) | 82%
Calcium/calmodulin-dependent protein kinase type II subunit beta (CAMK2B, Homo sapiens, UniProt Q13554) | 89%
Bone morphogenetic protein receptor type-1A (BMPR1A, Homo sapiens, UniProt P36894) | 100%
Vascular endothelial growth factor receptor 2 (KDR, Homo sapiens, UniProt P35968) | 88%
Calcium/calmodulin-dependent protein kinase kinase 2 (CAMKK2, Homo sapiens, UniProt Q96RR4) | 73%
Dual specificity protein kinase CLK2 (CLK2, Homo sapiens, UniProt P49760) | 66%
Receptor-interacting serine/threonine-protein kinase 4 (RIPK4, Homo sapiens, UniProt P57078) | 100%
Tyrosine-protein kinase Blk (BLK, Homo sapiens, UniProt P51451) | 100%
Serine/threonine-protein kinase 32A (STK32A, Homo sapiens, UniProt Q8WU08) | 100%
Receptor-type tyrosine-protein kinase FLT3 (FLT3, Homo sapiens, UniProt P36888, ITD) | 100%

Sample 3
Species: human
Medium: microsomes or S9
Tested at: 2 µM
Time: 0.5 h
SMILES | remaining compound [%]
Cc1ccc2c(c1)N(C(C)C)N=C(C(=O)N1CCOCC1)S2(=O)=O | 92
Cc1cc2oc(-c3ccsc3)c(CC(=O)O)c2c(=O)[nH]1 | 95.7
Cc1cc(NC(=O)C(C)c2ccc(Cl)s2)nc(=O)[nH]1 (stereo not drawn) | > 100
Cc1nn2c(-c3ccccc3)c(C#N)nnc2c1-c1ccccc1 | 35.1
CCC(C)(C)Nc1[nH]c2c(Cl)cc(C)cc2c(=O)c1C(C)=O | 48.1
Cc1ccc(Cn2c(=O)c3nn(C)cc3n3c(=O)n(Cc4nc(-c5ccccc5)oc4C)nc23)cc1 | 24.6
O=C(NC1CCCCCC1)N1CCOC2(CCOCC2)C1 | 87
O=S(=O)(Nc1ccc(N2CCOCC2)cc1)c1ccc(-c2nnc(C3CCC3)o2)o1 | 51.1
CC1(C)Cc2nc(N3CCCC3)c(C#N)cc2CO1 | 42.9
N#Cc1nnc2ccccc2c1Oc1ccc2ncccc2c1 | 50.3
O=c1cccc2n1CC1CC(C2)N(c2nc(N3CCCCC3)nc(N3CCCCC3)n2)C1 (stereo not drawn) | 3.89
CC(C)CN(CCNS(=O)(=O)c1ccc(-c2ccc(=O)[nH]n2)s1)CC(C)C | 0.42
Cc1ccc(-n2nc(C)c3c2CC(c2ccco2)CC3=O)cc1 (stereo not drawn) | 16.7
Cc1ccc2[nH]c3nc(N/N=C/c4cc5c(cc4Cl)OCO5)nnc3c2c1 | 67.4
COc1c(C)c(C)c2nc(NCc3ccc(S(N)(=O)=O)cc3)sc2c1C | 99.1

Sample 4
SMILES: O=C1Nc2ccccc2/C1=C\c1c(Cl)[nH]c2ccccc12
Observed: enzyme activity
Mode: inhibitor
Tested at: 0.5 µM
Reference: control
target | remaining activity [%]
G protein-coupled receptor kinase 6 (GRK6, Homo sapiens, UniProt P43250) | 107
Fibroblast growth factor receptor 4 (FGFR4, Homo sapiens, UniProt P22455) | 96.9
Glycogen synthase kinase-3 alpha (GSK3A, Homo sapiens, UniProt P49840) | 99.3
NUAK family SNF1-like kinase 1 (NUAK1, Homo sapiens, UniProt O60285) | 86
Receptor-type tyrosine-protein kinase FLT3 (FLT3, Homo sapiens, UniProt P36888) | 80.5
SRSF protein kinase 3 (SRPK3, Homo sapiens, UniProt Q9UPE1) | 97.1
Serine/threonine-protein kinase Sgk1 (SGK1, Homo sapiens, UniProt O00141) | 116
Serine/threonine-protein kinase pim-2 (PIM2, Homo sapiens, UniProt Q9P1W9) | 106
Aurora kinase C (AURKC, Homo sapiens, UniProt Q9UQB9) | 89.5
Ephrin type-B receptor 2 (EPHB2, Homo sapiens, UniProt P29323) | 94.2
Tyrosine-protein kinase CSK (CSK, Homo sapiens, UniProt P41240) | 101
Myosin light chain kinase, smooth muscle (MYLK, Homo sapiens, UniProt Q15746) | 90.4
Ribosomal protein S6 kinase alpha-1 (RPS6KA1, Homo sapiens, UniProt Q15418) | 105
Protein kinase C epsilon type (PRKCE, Homo sapiens, UniProt Q02156) | 95.1
Macrophage colony-stimulating factor 1 receptor (CSF1R, Homo sapiens, UniProt P07333) | 97.2
Cytoplasmic tyrosine-protein kinase BMX (BMX, Homo sapiens, UniProt P51813) | 99.8
Beta-adrenergic receptor kinase 1 (GRK2, Homo sapiens, UniProt P25098) | 98.9
Ephrin type-A receptor 7 (EPHA7, Homo sapiens, UniProt Q15375) | 95.3
Ribosomal protein S6 kinase beta-1 (RPS6KB1, Homo sapiens, UniProt P23443) | 99.7
Protein kinase C gamma type (PRKCG, Homo sapiens, UniProt P05129) | 89.2

A few entries again (sample 4):
target | remaining activity [%]
Ephrin type-A receptor 7 (EPHA7, Homo sapiens, UniProt Q15375) | 95.3
Ribosomal protein S6 kinase beta-1 (RPS6KB1, Homo sapiens, UniProt P23443) | 99.7
Cytoplasmic tyrosine-protein kinase BMX (BMX, Homo sapiens, UniProt P51813) | 99.8
Macrophage colony-stimulating factor 1 receptor (CSF1R, Homo sapiens, UniProt P07333) | 97.2
G protein-coupled receptor kinase 6 (GRK6, Homo sapiens, UniProt P43250) | 107
Myosin light chain kinase, smooth muscle (MYLK, Homo sapiens, UniProt Q15746) | 90.4
Receptor-type tyrosine-protein kinase FLT3 (FLT3, Homo sapiens, UniProt P36888) | 80.5
Beta-adrenergic receptor kinase 1 (GRK2, Homo sapiens, UniProt P25098) | 98.9
